Results from different studies.
Every numbered part comes from another study and shows a few of its results, in no order.

Sample 1 — technique: competition protein-binding microarray; form: double-stranded DNA, one strand shown; matrix: in vitro; tested at: 2 µM; added: Cbf1 competitor, 0.05 µM; direction: higher = stronger binding; endpoint: fluorescence intensity
Target: Phosphate system positive regulatory protein PHO4, full length, GST-tagged (PHO4, Saccharomyces cerevisiae, UniProt P07270, residues 1-312)
Setting: whole 60-bp probe, lowest competitor level
Target sequence (chain): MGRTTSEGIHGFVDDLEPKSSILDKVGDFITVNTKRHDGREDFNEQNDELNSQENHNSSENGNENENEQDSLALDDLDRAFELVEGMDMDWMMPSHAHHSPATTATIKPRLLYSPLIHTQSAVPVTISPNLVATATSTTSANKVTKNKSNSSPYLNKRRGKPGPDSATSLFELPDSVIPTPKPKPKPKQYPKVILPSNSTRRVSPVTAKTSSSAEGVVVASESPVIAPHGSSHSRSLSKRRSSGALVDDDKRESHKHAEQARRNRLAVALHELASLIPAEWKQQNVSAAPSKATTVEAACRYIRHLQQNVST
CTTCTGTAAATTTGTACCGTGGGTGGACGCGCCCCGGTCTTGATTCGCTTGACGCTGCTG: 5930 a.u.
CTAGACAAAGCAATTCTCATGACAAATCTACCGATTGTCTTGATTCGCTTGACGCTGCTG: 2750 a.u.
CGATGATGACTACATCATGTGACAGGTTAATGGTCAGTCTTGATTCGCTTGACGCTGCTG: 7000 a.u.
CTTTCCCGATCTTGCACTGTGGGTGTAGCACATTTGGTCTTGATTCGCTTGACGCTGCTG: 5620 a.u.
TAGAGAATGGCAATGCTCGTGCTAAAGGTGAAAAAAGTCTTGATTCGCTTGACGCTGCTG: 9990 a.u.
CTAACGAAGGTTTGAAGGGTGGGTGACAAGCCAAGTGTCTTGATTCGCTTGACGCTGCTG: 4310 a.u.
CATACCCAACCTTGCGTCGTGGGTGAAGATATTTGTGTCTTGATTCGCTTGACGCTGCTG: 8970 a.u.
CATACCCAACCTTGCCGCGTGGGTGAAGATATTTGTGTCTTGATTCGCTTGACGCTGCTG: 13400 a.u.
CGGGGTTAAGTTTGGCATGTGGGTGGCTTGCAGCAGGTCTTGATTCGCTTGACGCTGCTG: 11900 a.u.
CAGAAAGAATAGCGCCTCGTGGAATCTTGGCACCCAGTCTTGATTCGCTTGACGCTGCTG: 9830 a.u.
CTAACGAAGGTTTGATGCGTGGGTGACAAGCCAAGTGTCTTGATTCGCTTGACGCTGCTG: 8660 a.u.
CTTTCCCGATCTTTTCACGTGAGTTTAGCACATTTGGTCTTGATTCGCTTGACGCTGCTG: 10400 a.u.
CATACCCAACCTTGTTTAGTGGGTGAAGATATTTGTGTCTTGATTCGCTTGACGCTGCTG: 3530 a.u.
CACAGACAGGATAGCTGCGTGGGACAATATTGTTGAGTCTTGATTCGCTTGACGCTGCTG: 8290 a.u.
ACTTGTGGCTACATACTCGGTCAAGCCGCTTTGCTGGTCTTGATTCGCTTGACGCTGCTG: 3140 a.u.
CATACCCAACCTTGTCACGAGACTTAAGATATTTGTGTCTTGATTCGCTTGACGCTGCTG: 7730 a.u.

Sample 2 — technique: RNA Bind-n-Seq; form: RNA; matrix: in vitro; tested at: 365 nM; baseline: no-protein control; direction: higher = stronger binding; endpoint: RBNS enrichment (R)
Target: RNA binding protein fox-1 homolog 2, RRM domain, GST-SBP tag (RBFOX2, Homo sapiens, UniProt O43251-10, residues 100-194)
Setting: natural RNA segment, single round, ends assumed
Construct (chain): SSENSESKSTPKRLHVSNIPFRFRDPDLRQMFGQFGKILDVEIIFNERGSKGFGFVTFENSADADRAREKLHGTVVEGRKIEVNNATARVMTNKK
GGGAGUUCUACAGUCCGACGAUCAGAGCACAAGAGUAUGCGUACAUAGUUUACCAGGUAGUAGAAGUGUGUUAAAAUGUUCCUGUAAAAGAAACAUUGGUAAAUUUAAAUACAUACUGUUCUAAUUUUGUAUUUGGAAUUCUCGGGUGCCAA: 0.769
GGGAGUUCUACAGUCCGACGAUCUGGGCAGUGACACCUCUAGUGCCCCCAGCAGCCAUGUAGGCAUCCACUCCACCUGCAAAAGACGAUGGCUCUGUUGUUCUUGGCUUCCUGGUGUGCUUUGAAGGCAGAUGUGGAAUUCUCGGGUGCCAA: 0.612
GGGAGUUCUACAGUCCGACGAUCCAUGUGCCACCCCCUUUCCUAACAGACUUGUCCAAGUGCUUGGCGUGGGACCCAUGACCAAAGCCCAGGAUGGCUUGGUGGGAGUGUCCCUGCUGCAUCUGCAUGAAGCCUGGAAUUCUCGGGUGCCAA: 2.87
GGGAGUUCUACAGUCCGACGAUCUUUCCCUUAGUUUUGUGAACUCUGCUAAUCACUGUGUCUCUAAGUUAGACUUAUUUUCUAGUGGCUUCAACACAUGUUCCAACUUGAAUUUUUUUCUUUUCUUCUUUAAGUGGAAUUCUCGGGUGCCAA: 0.62
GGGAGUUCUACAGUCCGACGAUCGUACAUGACUAGCUCUCCCAGUGUCCAAGCGCGUGCCUUCCCCGAGCCACUGGGGCGCAGCAGCGCGCUGCCCCUCUGCCCCAGGGACACCGGGCGCGCAUAACCACCCCUGGAAUUCUCGGGUGCCAA: 0.3
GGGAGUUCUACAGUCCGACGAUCUGGGGGGCGCCGGGUGGCAAAGGACUCACCCCCGCACAGGCCCGCCUGGCUUCGAGUUGGAACCCGGACACUUGCCCCUCACUGGUGUGGAUGGAAAUCUGCCUUUCGUGUGGAAUUCUCGGGUGCCAA: 0.294
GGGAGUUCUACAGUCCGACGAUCUGUGCUGAGGCAUGUUCCUGCCUACCAUCCUCCUCCCUCCCCGGCUCUCCUCCCAGCAUCACACCAGCCAUGCAGCCAGCAGGUCCUCCGGAUCACUGUGGUUGGGUGGAUGGAAUUCUCGGGUGCCAA: 0.711
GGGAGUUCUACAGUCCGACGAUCUCUCACAUUAAUAUCUGAAGUGCUUGUAUUAAAAGUAAAGAAAGGUAACUAAGGGAAUUUGUUUCAGUCUGGUUCUCCACUUACUAUACUGUGUUUUCAAGGUAAAUGGUUGGAAUUCUCGGGUGCCAA: 0.311
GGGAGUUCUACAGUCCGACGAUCUUAAAACUAUACAGUUACAUCUUAAUUCCAUCCAAAGAAGAUACAGUUUGAAGACAGAAGUGUACUCUCUACAAUGCAAUUUACUGUACAGUUAGAAAGCAAAGUGUUAAUGGAAUUCUCGGGUGCCAA: 0.46
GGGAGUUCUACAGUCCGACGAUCACUGCUGGGUGGCCCAUCCCCCCUCACCAGGGGCAGGCACAGCACAGGGAUCCGACUUGAAUUUUCCCACUGCACCCCCUCCUGCUGCAGAGGGGCAGGCCCUGCACUGUUGGAAUUCUCGGGUGCCAA: 0.421
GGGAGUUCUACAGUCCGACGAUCUGCUUCAUCUUUGGACUAUAUCUCAGGUGUUUACGUGUCAACUAAUGGGAGCUUACUGGGUUAGAAGUCAGGACACUGAGUUUCAAUCCUCACUUAGUAGUCUGUGGCCCUGGAAUUCUCGGGUGCCAA: 0.343
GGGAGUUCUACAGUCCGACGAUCCAUGCACACGUGUGCAUUUGUUUGUAUACAUAUAUUUGUCCUUCGUAUAGCAAGUUUUUUGCUCAUCAGCAGAGAGCAACAGAUGUUUUAUUGAGUGAAGCCUUAAAAAGUGGAAUUCUCGGGUGCCAA: 0.401

Sample 3 — technique: protein binding microarray; form: double-stranded DNA, one strand shown; matrix: in vitro; tested at: not given; baseline: not given; direction: higher = stronger binding; endpoint: E-score
Target: Histone acetyltransferase KAT6A, winged helix 1, GST fusion (KAT6A, Homo sapiens, UniProt Q92794, residues 1-85)
Setting: 8-mer, flanks averaged, mean of 2 arrays, mostly near background
Target sequence (chain): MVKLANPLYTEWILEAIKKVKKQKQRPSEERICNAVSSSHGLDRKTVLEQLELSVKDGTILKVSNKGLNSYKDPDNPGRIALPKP
AAGTGAGT: -0.206
GGACTGTA: -0.148
ACACCATG: -0.0927
ACGAAACC: 0.0419
CGACGAGA: -0.196
CGCTTTCA: 0.0702
CGTAATGC: 0.168
CATATTAG: -0.0753
CCCTGTGA: -0.24
CCCGTTGA: 0.0739
CCTCCGAC: 0.0647
CCACTGGG: -0.22
GGTTAGAA: -0.0941
GGACACCA: -0.224
CGTGCCAA: -0.156
AGCCAATC: -0.182
AGTATTGG: -0.0779
ATTATTCG: -0.0764
AGCTCTTA: -0.0721
AAATTCTC: -0.158
AGCTACAC: -0.0762
ACACCCAC: -0.223
ACCTATCC: -0.112
GCCTAAGA: -0.0256

Sample 4 — technique: aptamer microarray, sandwich; form: DNA with 2'F-ANA; matrix: in vitro; tested at: 200 nM; added: Cy3 exosite-II aptamer, 400 nM; direction: higher = stronger binding; endpoint: mean fluorescence intensity; strand: GGTTGGTGTGGTTGG
Target: Prothrombin, mature alpha-thrombin (F2, Homo sapiens, UniProt P00734)
Setting: whole 15-mer aptamer, many near background
2'F-ANA at 1 3 5 6 8 9 12 13 15: 91.1 a.u.
2'F-ANA at 2 3 7 12 14 15: 497 a.u.
2'F-ANA at 3 7 9 14: 612 a.u.
2'F-ANA at 1 2 3 6 13 14: 71.3 a.u.
2'F-ANA at 5 7 10 12 15: 51.9 a.u.
2'F-ANA at 2 4 5 6 7 8 9 11 13 15: 103 a.u.
2'F-ANA at 3 4 5 6 7 9 10: 64.5 a.u.
2'F-ANA at 1 3 4 6 8 12 14: 134 a.u.
2'F-ANA at 1 2 3 8 9 14: 223 a.u.
2'F-ANA at 2 3 4 5 6 13 14: 47.5 a.u.
2'F-ANA at 2 3 5 6 9 11 12 13: 115 a.u.
2'F-ANA at 4 5 6 7 12 14 15: 46.6 a.u.
2'F-ANA at 1 3 4 6 10 11 12 14 15: 53.4 a.u.
2'F-ANA at 1 2 3 5 6 7 8 9 14 15: 106 a.u.
2'F-ANA at 5 8 10 11 12 14 15: 44.6 a.u.
2'F-ANA at 2 3 5 6 7 9 14 15: 194 a.u.
2'F-ANA at 1 2 3 4 5 7 8 10 11 13 15: 53.1 a.u.
2'F-ANA at 2 3 4 6 8 10 11 12 13 14 15: 154 a.u.
2'F-ANA at 1 2 7 10 11 15: 51.2 a.u.
2'F-ANA at 3 4 6 8 10 14 15: 162 a.u.
2'F-ANA at 2 6 8 9 10 12 15: 146 a.u.
2'F-ANA at 2 4 7 9 11 12: 497 a.u.

Some of these lines once more (sample 3):
CCACTGGG: -0.22
GGTTAGAA: -0.0941
GGACACCA: -0.224
CGTGCCAA: -0.156
AGCCAATC: -0.182
